Measured values from different studies.
Each line is one published result; not all experiments were run side by side. Numbers after ± are the reported error.

SMILES = COC(=O)C(c1ccccc1Cl)N1CCC2SC(=O)C=C2C1 (stereo not shown); assay = LC-MS/MS; test system = human plasma; conditions = 2 ng/mL, after freeze-thaw cycles; measured concentration = 1.9 ± 0.2 ng/mL
SMILES = Cc1[nH]c(/C=C2\C(=O)Nc3ccc(F)cc32)c(C)c1NC(=O)CCN1CCN(C)CC1; test system = dog plasma; conditions = 80 ng/mL nominal, 24 h, 25 °C, processed samples at room temperature; measured concentration = 74.8 ng/mL
SMILES = CNC(=O)N[C@]1(C)CCC[C@@]2(C)C3CC[C@@]4(C)C[C@]3(CCC21)CC4=O (single isomer, unassigned); test system = processed rat plasma; conditions = 40 ng/mL, 24 h, 4 °C, autosampler stability; measured concentration = 39.7 ± 0.45 ng/mL
SMILES = COc1ccc(-c2cc(=O)c3c(O)cc(O[C@@H]4O[C@H](CO[C@@H]5O[C@@H](C)[C@H](O)[C@@H](O)[C@H]5O)[C@@H](O)[C@H](O)[C@H]4O)cc3o2)cc1; assay = freeze-thaw stability; test system = rat plasma; conditions = 3 days, medium QC, 3 freeze-thaw cycles; measured concentration = 755 ± 16.5 ng/mL
SMILES = C[N+](C)(C)CC(CC(=O)[O-])OC(=O)CCC(=O)Nc1ccn([C@@H]2O[C@H](CO)[C@@H](O)C2(F)F)c(=O)n1 (stereo partly shown); test system = THU-treated rat plasma; conditions = 125.00 ng/mL, -80 to 20 °C, three freeze-thaw cycles, mid QC; measured concentration = 109 ± 1.4 ng/mL
SMILES = COc1ccnc(C[S+]([O-])c2nc3cc(-n4cccc4)ccc3[nH]2)c1C (stereo not shown); test system = rat plasma; conditions = 2.5 ng/mL spiked, 4 h, room temperature, working solution:plasma 5:95 v/v; measured concentration = 2.52 ng/mL
SMILES = Oc1ccc2ccccc2c1/N=N/c1ccccc1; test system = rat whole blood extract; conditions = 0.5 µg/L, 30 days, -20 °C, long-term storage; measured concentration = 0.504 ng/mL
SMILES = COC(=O)C(c1ccccc1Cl)N1CCC(SCC(=O)c2cccc(OC)c2)C(=CC(=O)O)C1 (stereo not shown); assay = LC-MS/MS; test system = human plasma; conditions = 50 ng/mL, 8 h, room temperature; measured concentration = 51.1 ± 4.9 ng/mL
SMILES = Cc1ccc(/N=N/c2c(O)ccc3ccccc23)c(C)c1; test system = extracted rat blood QC samples; conditions = 0.2 µg/L, 8 h, room temperature, short-term stability; measured concentration = 0.224 ng/mL
SMILES = COc1ccc([C@@H]2CC(=O)c3c(O)cc(O[C@@H]4O[C@H](CO[C@@H]5O[C@@H](C)[C@H](O)[C@@H](O)[C@H]5O)[C@@H](O)[C@H](O)[C@H]4O)cc3O2)cc1O; test system = rat plasma; conditions = 0.48 ng/mL, 12 h, room temperature, autosampler stability; measured concentration = 0.46 ± 0.04 ng/mL
